Measurements collected from several papers.
A part holds a random share of what one study measured. Substitutions count along the parent as printed.

Block 1 — target: CCNF, cyclin fold, Cln2 fusion (human); technique: yeast growth competition, sequencing; medium: yeast; notes: weak parent motif; relative to: not given; direction: higher = stronger binding; measurement: normalised enrichment score
Starting sequence: PKN2 docking peptide (human); VSAVQKLDFSDTM
VSAVQKLDFYDTM [S10Y]: 0.669
VSIVQKLDFSDTM [A3I]: 0.463
YSAVQKLDFSDTM [V1Y]: 1.71
VSAVQNLDFSDTM [K6N]: 0.0114
VSAHQKLDFSDTM [V4H]: -0.686
VSAKQKLDFSDTM [V4K]: 0.843
VSAVQYLDFSDTM [K6Y]: -0.829
VYAVQKLDFSDTM [S2Y]: 1.95
VFAVQKLDFSDTM [S2F]: 1.02
VSAVQKLDFSDTD [M13D]: 0.951
VSAVQKLDFTDTM [S10T]: 0.916
ESAVQKLDFSDTM [V1E]: -0.765
KSAVQKLDFSDTM [V1K]: 1.55
VSAVQKLDISDTM [F9I]: -0.528
VSAVQKLDFSLTM [D11L]: 1.33
VSAVQKHDFSDTM [L7H]: 0.132
VSAVQKLDFSDLM [T12L]: 1.61
VHAVQKLDFSDTM [S2H]: 1.01
VSAVQKLDFSWTM [D11W]: 1.38
VSFVQKLDFSDTM [A3F]: 0.314

Block 2 — technique: RNA Bind-n-Seq; form: RNA; medium: in vitro; tested at: 200 nM; notes: whole 134-nt RNA, ends assumed; with: 150 mM LiCl; relative to: input library; direction: higher = stronger binding; measurement: log2 enrichment; library: 7-deaza-guanosine replaces G
Target: Fragile X messenger ribonucleoprotein 1, C-terminal low-complexity region (Fmr1, Mus musculus, UniProt P35922)
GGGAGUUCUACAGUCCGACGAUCUGGCCCUGGUGGCAUGCGGGGAGGAAGAGGUGGCCUCAUGGAUCGUGGUGGUCCCUGUGGAAUGUUCAGAGGUGGCCGUGGUGGAGACAGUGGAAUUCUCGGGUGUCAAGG: 0.0471
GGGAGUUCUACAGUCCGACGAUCCUCAAGUCCUGUGCUACACAUCGUAUGUACCGAAUCGGAAAAAGGUGGAAAGGAAAGUAUUAUGUUACGCCGUUCGGAUCUGCACUUCCAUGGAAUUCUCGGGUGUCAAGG: 0.0528
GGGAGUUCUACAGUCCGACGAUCAGUCCUGUGCUACACAUCGUAUGUACCGAAUCGGGUUUGGGAAAGGGUUUUUUUGGGAAAGUAUUAUGUUACGCCGUUCGGAUCUGCACUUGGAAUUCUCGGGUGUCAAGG: -1.78
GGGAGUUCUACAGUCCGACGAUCACCAUGCAGGUGGGCAGCUUUGGGAAGUGGGGCAAGGGGGGGAUAGGGAGGGGGGUAACACUUUGGGAACAGGUGGUCCCAGGUCGUUUCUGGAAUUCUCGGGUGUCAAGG: 1.44
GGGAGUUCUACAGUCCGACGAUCGUCCUGUGCUACACAUCGUAUGUACCGAAUCGGGAAAAAGGGAAAAAGGGAAAAAGGGAAAGUAUUAUGUUACGCCGUUCGGAUCUGCACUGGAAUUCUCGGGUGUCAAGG: 0.14
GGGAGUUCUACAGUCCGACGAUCGGUAGCAAGAGCUCCAGAGAGAAGUCGAGGAAGAGAGAGACGGGGUCAGAGAGAGCGCGCGGGCGUGCGAGCAGCGAAAGCGACAGGGGCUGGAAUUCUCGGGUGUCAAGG: 1.18
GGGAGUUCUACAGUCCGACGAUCGUCCUGUGCUACACAUCGUAUGUACCGAAUCAAACCCAAACCCCCCCAAAUUUUUAAAAAAGUAUUAUGUUACGCCGUUCGGAUCUGCACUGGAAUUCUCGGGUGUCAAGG: 1.67
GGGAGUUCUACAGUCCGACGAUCAGUCCUGUGCUACACAUCGUAUGUACCGAAUCGGGAAAAAAAGGGAAAAAGGGAGGGAAAGUAUUAUGUUACGCCGUUCGGAUCUGCACUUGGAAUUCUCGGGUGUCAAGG: -0.773
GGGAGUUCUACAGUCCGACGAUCGUCCUGUGCUACACAUCGUAUGUACCGAAUCGGAAAAAAAGGUUUUUGGAAAAAAAGGAAAGUAUUAUGUUACGCCGUUCGGAUCUGCACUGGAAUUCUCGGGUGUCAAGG: -1.79
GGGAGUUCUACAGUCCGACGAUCUAACUUUAGAGGAGGAUCUGAUGGAUAUGGCAGUGGACGUGGAUUCGGGGAUGGCUAUAAUGGGUAUGGAGGAGGACCUGGAGGUGGCAAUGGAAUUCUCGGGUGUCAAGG: -0.314
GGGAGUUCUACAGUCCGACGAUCGUCCUGUGCUACACAUCGUAUGUACCGAAUCGGGGAAAGGGGAAAGGGGUUUUUGGGGAAAGUAUUAUGUUACGCCGUUCGGAUCUGCACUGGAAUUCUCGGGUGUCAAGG: 0.379

Block 3 — technique: protein binding microarray; form: double-stranded DNA, one strand shown; medium: in vitro; tested at: not given; relative to: not given; direction: higher = stronger binding; measurement: E-score
Target: Histone acetyltransferase KAT6A, winged helix 1, GST fusion (KAT6A, Homo sapiens, UniProt Q92794, residues 1-85)
Notes: 8-mer, flanks averaged, mean of 2 arrays, mostly near background
Construct (chain): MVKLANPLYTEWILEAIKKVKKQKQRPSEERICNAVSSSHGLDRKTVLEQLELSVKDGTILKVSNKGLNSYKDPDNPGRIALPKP
ATGAACAA: -0.169
CGCTCTGC: 0.187
GACAGTAA: -0.00708
ATTTCCAG: -0.0894
ACGTTTAA: -0.183
CCAGGCCA: -0.107
CGGAGTGC: 0.173
CCTTGCTC: -0.15
ACTTGCAG: -0.249
GTAGATCA: -0.107
GACAGGTC: -0.0715
GCCTGCAA: -0.134
GTAGGCCA: -0.131
AATTATCG: -0.0464
CTATAAAC: -0.029
AAATGTCC: -0.1
ACTGTCAC: -0.115
GAAGGAAA: -0.145
ATGAACAT: -0.124
CCGCTAGG: 0.235
ATACCGAA: 0.108
ATCATATA: -0.13
TTCAGGAA: -0.235
CAAAATCC: -0.0952
ACCGACCT: 0.00502

Block 4 — technique: protein-binding microarray; form: double-stranded DNA, one strand shown; medium: in vitro; tested at: 2200 nM top; notes: 60-bp whole probe; with: salmon DNA 0.4 mg/ml; relative to: random background probes; direction: higher = stronger binding; measurement: fitted relative affinity; constant ends, left off below: GCCTAGCAC … GTCTTGATTCGCTTGACGCTGCTG
Target: Interferon regulatory factor 7, full length, phosphomimetic (IRF7, Homo sapiens, UniProt Q92985, residues 1-503, S471D/S472D/S475D/S476D/S477D/S483D/S484D/S487D)
Construct (chain): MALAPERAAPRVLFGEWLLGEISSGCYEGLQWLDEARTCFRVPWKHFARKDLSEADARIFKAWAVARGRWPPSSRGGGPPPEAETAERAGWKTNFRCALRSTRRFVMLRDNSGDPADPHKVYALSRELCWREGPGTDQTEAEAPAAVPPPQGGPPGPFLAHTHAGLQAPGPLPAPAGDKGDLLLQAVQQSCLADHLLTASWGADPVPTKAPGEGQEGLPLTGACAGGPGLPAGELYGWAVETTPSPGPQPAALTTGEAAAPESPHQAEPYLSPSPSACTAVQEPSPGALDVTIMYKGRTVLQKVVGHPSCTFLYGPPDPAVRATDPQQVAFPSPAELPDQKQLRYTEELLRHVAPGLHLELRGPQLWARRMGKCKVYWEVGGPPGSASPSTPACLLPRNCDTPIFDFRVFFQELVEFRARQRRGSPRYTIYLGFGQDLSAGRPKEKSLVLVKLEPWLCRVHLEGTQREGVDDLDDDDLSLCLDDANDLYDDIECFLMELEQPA
GTCCTCCTCTCTCTTTCCACGTGCTAG: 3.13 z-score
TTAGGTCTCCTTCTGCTTTAGTGCTAG: 0.797 z-score
GACGGTATCCTAATCCTGACGTGCTAG: 0.631 z-score
ATATATATCCATTATAGATGGTGCTAG: 0.942 z-score
GACGGTTTCGGTAACGGGACGTGCTAG: 3.24 z-score
GACGATTTCAGTATCTAGACGTGCTAG: 0.746 z-score
TTAGATCGCAGACTGGATTAGTGCTAG: -0.403 z-score
TCACCTTTCCAAATACCACTGTGCTAG: 2.87 z-score
GTAGGTTTCCTTTCCCTTTAGTGCTAG: 5.11 z-score
TCACTTCACCTCTCTGTCACTGTGCTA: 2.72 z-score
TTTGGTTCCGGTTTCGGTTAGTGCTAG: 8.91 z-score
GACGGTTTCGACACTGGGGGCGTGCTA: 3.08 z-score
CTCACTCTAATCTCACTCTGTGTGCTA: 1.34 z-score
TTAGGTATCCTTTTCCTTGAGTGCTAG: 1.2 z-score
GACGAACTGAGTTTTGAGACGTGCTAG: 0.25 z-score
CTACGTCTGATTTTGCTTTCGTGCTAG: 2.93 z-score
TCAAGTTTCTCCTTTCCACTGTGCTAG: 3.5 z-score
TCAATTATATATTTATGACTGTGCTAG: 0.211 z-score
TTCTATGTCTGTTTTTGCTTGTGCTAG: 1.83 z-score
GACGGTCTCCTTATTCTGACGTGCTAG: 1.11 z-score

Block 5 — technique: DHFR PCA, deep sequencing; medium: yeast; with: (+)-ABA 710 µM; relative to: wild-type fitted maximum; direction: higher = stronger binding; measurement: relative binding score
Target: ABI1, truncated, D143A, DHFR fusion (Arabidopsis thaliana)
Notes: methotrexate growth selection, single substitutions
Starting sequence: PYL1, truncated, DHFR fusion (Arabidopsis thaliana); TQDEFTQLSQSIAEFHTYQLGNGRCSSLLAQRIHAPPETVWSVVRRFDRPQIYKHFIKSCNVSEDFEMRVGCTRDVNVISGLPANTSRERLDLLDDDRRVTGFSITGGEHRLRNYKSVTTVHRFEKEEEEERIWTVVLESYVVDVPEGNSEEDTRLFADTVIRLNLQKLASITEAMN
V142K: 88.1%
K168E: 93.4%
R111V: 41.3%
S87L: 13.2%
D159E: 100%
G23W: 87.7%
S42P: 96.1%
F66K: 103%
E129P: 110%
G108Y: 23.4%
R24C: 95.4%
S171H: 101%
G108S: 49.9%
G102F: -3.88%

Further values, each from its own experiment
PhoQ, residues 284 288 289 292 302 303 TASMAF  fold induction (PhoP, residues 12 14 15 18 19 NMSSL (Escherichia coli, UniProt P23836); Sort-seq, measured: YFP reporter; E. coli; PhoQ-PhoP variant library, with: 10 µM Mg2+; relative to: high Mg2+ state, higher = stronger signaling): 29.7
